# Measurements gathered from unrelated publications.
# Lines come from different studies, so protocols differ. ± marks the error that the study gave.
# UniProt P04629, sequence (whole entry, looked up): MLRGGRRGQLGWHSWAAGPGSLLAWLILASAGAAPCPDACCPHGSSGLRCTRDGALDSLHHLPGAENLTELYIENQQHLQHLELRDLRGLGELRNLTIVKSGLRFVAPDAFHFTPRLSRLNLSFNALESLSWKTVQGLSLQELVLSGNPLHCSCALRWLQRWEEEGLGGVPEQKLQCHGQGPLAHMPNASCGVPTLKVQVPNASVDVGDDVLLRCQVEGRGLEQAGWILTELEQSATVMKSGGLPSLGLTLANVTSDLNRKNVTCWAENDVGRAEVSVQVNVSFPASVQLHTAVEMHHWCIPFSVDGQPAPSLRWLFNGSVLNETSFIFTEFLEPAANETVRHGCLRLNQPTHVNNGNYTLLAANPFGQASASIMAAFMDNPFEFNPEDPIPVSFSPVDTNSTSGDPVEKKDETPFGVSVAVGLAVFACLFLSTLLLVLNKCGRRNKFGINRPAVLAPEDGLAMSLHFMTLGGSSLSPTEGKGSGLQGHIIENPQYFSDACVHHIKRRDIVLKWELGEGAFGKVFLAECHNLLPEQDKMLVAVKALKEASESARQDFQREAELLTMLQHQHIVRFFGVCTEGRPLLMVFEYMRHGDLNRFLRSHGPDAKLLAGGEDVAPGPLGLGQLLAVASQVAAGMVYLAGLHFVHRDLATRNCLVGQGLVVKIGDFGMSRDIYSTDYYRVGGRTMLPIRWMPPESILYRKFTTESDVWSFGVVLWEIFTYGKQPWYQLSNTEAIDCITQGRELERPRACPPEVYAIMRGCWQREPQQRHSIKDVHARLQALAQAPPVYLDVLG
Compound,target or system,test,test system,setting,scale,endpoint,value
CC(=O)N1CCC(C(=O)N2CCN3C(=O)c4cc(-c5ccccc5)ccc4NC(=O)C3C2)CC1 (stereo not shown),Escherichia coli,,WP2 uvrA,"1.58 µg/plate, with rat liver S9",,revertants per plate,27.5
OC(CCN1CC=C(c2ccc(F)cc2)CC1)c1ccc(F)c2ccccc12 (stereo not shown),Salmonella typhimurium,"genotoxicity, SOS/umu test",TA1535/pSK1002,"0.001 mg/mL, 4 h, with S9, lower range",,induction factor,0.7
[Cl-].[Cl-].[Pt+2].[Ru+2].c1ccc(-c2nc3ccccc3nc2-c2ccccn2)nc1.c1cnc2c(c1)ccc1cccnc12.c1cnc2c(c1)ccc1cccnc12,Danio rerio,,embryos,"45 µM, 96 h",,survival rate,73.3 ± 2.4%
C=C1CC[C@H](OCCCNC(=O)CCOCCOCCOCCOCCOCCOCCOCCOCCOCCOCCOCCOCCOCCOCCOCCOCCOCCOCCOCCOCCOCCOCCOCCOCCOCCOCCOCCOCCOCCOCCOCCOCCOCCOCCOCCOCCNC(=O)CCN2C(=O)CC(SC[C@H](NC(=O)[C@H](CCCNC(=N)N)NC(=O)[C@@H]3CCCN3C(=O)[C@H](CCC(N)=O)NC(=O)[C@H](CC(C)C)NC(=O)[C@H](CCCCN)NC(=O)[C@H](C)NC(=O)[C@@H]3CCCN3C(=O)[C@@H]3CCCN3C(=O)[C@H](CCCCN)NC(=O)[C@H](CCCCN)NC(=O)[C@H](CO)NC(=O)[C@H](CCC(=O)O)NC(=O)[C@H](CCCCN)NC(=O)[C@H](CCCNC(=N)N)NC(=O)[C@H](CCC(N)=O)NC(=O)[C@H](CCC(N)=O)NC(=O)[C@@H](NC(=O)[C@H](CCCNC(=N)N)NC(=O)[C@H](CCC(N)=O)NC(=O)[C@H](Cc3c[nH]cn3)NC(=O)[C@H](CCC(=O)O)NC(=O)[C@@H]3CCCN3C(=O)[C@H](CO)NC(=O)[C@H](CC(C)C)NC(=O)[C@H](Cc3ccccc3)NC(=O)[C@H](CNC(=O)CCCCCCC)NC(=O)[C@H](CO)NC(=O)CN)C(C)C)C(=O)O)C2=O)C/C1=C/C=C1\CCC[C@]2(C)[C@@H]([C@H](C)CCCC(C)(C)O)CC[C@@H]12 (stereo partly shown),,allometric scaling,human,,,half-life,~123 h
CC[C@H](C)[C@@H]([C@@H](CC(=O)N1CCC[C@H]1[C@H](OC)[C@@H](C)C(=O)N[C@H](C)[C@@H](O)c1ccccc1)OC)N(C)C(=O)[C@@H](NC(=O)[C@H](C(C)C)N(C)C(=O)OCc1ccc(NC(=O)[C@H](CCCNC(N)=O)NC(=O)[C@@H](NC(=O)CCCCCN2C(=O)CC(SC[C@H](NC(=O)[C@H](CC(=O)O)NC(=O)[C@H](CCCNC(=N)N)NC(=O)[C@H](CC(=O)O)NC(=O)CCCCn3cc(CCCC(=O)Nc4nnc(S(N)(=O)=O)s4)nn3)C(=O)O)C2=O)C(C)C)cc1)C(C)C (stereo partly shown),,,"BALB/c nu/nu mice, SK-RC-52 xenograft",intravenous,,maximal tolerated dose,250 nmol/kg
C[C@H]1CN(c2n[nH]c3nc(N[C@H]4CC[C@H](NS(=O)(=O)CCC(F)(F)F)CC4)ncc23)CCO1,"NTRK1 (Homo sapiens, UniProt P04629)","inhibitor, Kinobeads competition profiling",,0.16 µM,baseline: vehicle,relative abundance,1.08
COc1cccc(-c2n[nH]c(SCc3ccccn3)n2)c1OC,Salmonella typhimurium,"Ames test, plate incorporation",TA1535,"2.0 mg/plate, without S9",,revertant colonies per plate,8
[Cl-].[Cl-].[Pt+2].[Ru+2].c1ccc(-c2nccnc2-c2ccccn2)nc1.c1cnc2c(c1)ccc1cccnc12.c1cnc2c(c1)ccc1cccnc12,Danio rerio,,embryos,"30 µM, 0 h",,survival rate,100%
O=[N+]([O-])c1ccc(N2CCN(CCC(O)c3ccc(F)cc3)CC2)c(C(F)(F)F)c1 (stereo not shown),Salmonella typhimurium,"genotoxicity, SOS/umu test",TA1535/pSK1002,"0.063 mg/mL, 4 h, with S9, full range",,induction factor,1.4
COc1ccc(C[C@H](NC(=O)[C@H](C)NC(=O)CN2CCOCC2)C(=O)N[C@@H](Cc2ccccc2)C(=O)C2(C)CO2)cc1 (stereo in doubt),Plasmodium falciparum,,"3D7, artemisinin-sensitive",,baseline: HEK-293T CC50 over IC50,selectivity ratio,> 4560
Cc1cc(C(=O)NC(C)(C)COc2cccc3c2C(N)=NS(=O)(=O)N3)cc(C)n1,Salmonella typhimurium,"Ames test, initial",TA1535,"1.50 µg/plate, together with: rat liver S9",baseline: solvent control,revertant ratio,0.8
O=C(O)C[C@H](NC(=O)[C@H](CC(=O)O)NC(=O)[C@H](CC(=O)O)NC(=O)[C@H](CC(=O)O)NC(=O)[C@H](CC(=O)O)NC(=O)[C@H](CC(=O)O)NC(=O)[C@H](CC(=O)O)NC(=O)[C@H](CC(=O)O)NC(=O)[C@H](CC(=O)O)NC(=O)[C@H](CC(=O)O)NC(=O)[C@H](CC(=O)O)NC(=O)[C@H](CCCCNC(=O)c1ccc(C(=O)NCCOCCOB2BBBBBB3BBBB3B2)cc1)NC(=O)CN1CCN(CC(=O)O)CCN(CC(=O)O)CCN(CC(=O)O)CC1)C(=O)O [gallium-67 labelled],,,"ddY male mice, small intestine","intravenous, 37 kBq, 1 h",,tissue uptake,0.45 %ID/g
O=[N+]([O-])c1ccc(N2CCC(NCCC(O)c3ccc(F)c4ccccc34)CC2)c(C(F)(F)F)c1 (stereo not shown),Salmonella typhimurium,"SOS response, SOS/umu test","TA1535/pSK1002, TGA medium","0.000244 mg/mL, 4 h, without S9",baseline: untreated,induction factor,0.5
